Measurements collected from several papers.
Protocols differ between the studies behind these lines. “And” joins repeats or separate records; there may be more than shown. ± gives the spread as reported.
SRC SH3-SH2-kinase domain: Proto-oncogene tyrosine-protein kinase Src, SH3-SH2-kinase domain (SRC, Gallus gallus, UniProt P00523)
Genome polyprotein NS3 helicase domain: Genome polyprotein, NS3 helicase domain (Hepatitis C virus genotype 1b, UniProt Q9WMX2)
F10: Coagulation factor X (F10, Homo sapiens, UniProt P00742)
HCK: Tyrosine-protein kinase HCK (HCK, Homo sapiens, UniProt P08631)

Compound = COP(=O)(OC)OCC1(O)O[C@H](COP(=O)(O)O)[C@@H](O)[C@@H]1O (stereo partly drawn); target = Phosphoglycerate mutase 1 (Homo sapiens, UniProt P18669); assay = enzyme activity, inhibitor; IC50 = 1080 µM
Compound = CCCCCCCCCCCCCCCC(=O)OC[C@H](NC(=O)CNC(=O)CNc1ccc([N+](=O)[O-])c2nonc12)C(=O)N[C@H](C(=O)N[C@@H](CCCCN)C(=O)N[C@H](C(=O)N[C@@H](CCCCN)C(=O)N[C@@H](CCCCN)C(N)=O)[C@@H](C)CC)C(C)C; target = Palmitoyl-protein thioesterase 1 (Homo sapiens, UniProt P50897); assay = enzyme activity, inhibitor; test system = lymphoblast or fibroblast lysate; setting = pH 4.7, with: MUGS-palmitate; IC50 = 20 µM
Compound = O=C1NC(=O)/C(=C/c2ccc(C(=O)NC[C@@H]3C[C@@H](SC(c4ccccc4)(c4ccccc4)c4ccccc4)CN3C(=O)c3ccccc3C(=O)c3ccc(F)cc3F)cc2)S1; target = PLA2G4A (Homo sapiens, UniProt P47712); assay = enzyme activity, inhibitor, LC-MS, measured: lysophosphatidylcholine; setting = with: PAPC substrate; IC50 = 1.32 µM and 1.83 µM
Compound = Cc1nn(-c2ccccc2)nc1CNS(=O)(=O)c1c(C)nn(C)c1C; target = Trypanothione synthetase (Trypanosoma brucei, UniProt Q586P2); assay = enzyme activity, inhibitor; IC50 = 2.6 µM
Compound = Cc1ccccc1-c1cc(N2CCN(C(=O)[C@@H](N)CCCNC(=N)N)CC2)ccc1N(C)C(=O)C(C)(C)c1cc(C(F)(F)F)cc(C(F)(F)F)c1; target = TACR1 (Homo sapiens, UniProt P25103); assay = IP1 accumulation, antagonist; setting = 90 min, with: substance P 10 nM; IC50 = 0.407 µM
Compound = CC(C)(C)c1ccc(C[C@@H]2NC(=O)[C@H](Cc3ccccc3)NC(=O)[C@H](CC3CCCCC3)NC(=O)/C=C/C(=O)N[C@H](C(N)=O)CCCNC2=O)cc1; target = SRC SH3-SH2-kinase domain; assay = enzyme activity, inhibitor, Z'-LYTE FRET; setting = Src residues 83-533, with: 50 µM ATP; IC50 = > 10 µM
Compound = COc1cccc(Nc2nc(-c3ccc(Br)cc3)cs2)c1; target = Capsid scaffolding protein, protease domain (Human herpesvirus 8 type P, UniProt Q2HRB6); assay = protease activity, inhibitor; setting = with: fluorogenic peptide substrate; IC50 = 211 µM
Compound = C[C@@H](O)[C@@H]1NC(=O)[C@H](Cc2ccccc2)NC(=O)[C@H]([C@@H](C)O)NC(=O)[C@H](CCCCN)NC(=O)[C@@H](Cc2c[nH]c3ccccc23)NC(=O)[C@H](Cc2ccccc2)NC(=O)[C@H](Cc2ccccc2)NC(=O)[C@H](CC(N)=O)NC(=O)[C@H](NC(=O)[C@@H](N)Cc2ccc(Cl)cc2)CSSC[C@@H](C(=O)N[C@@H](Cc2ccc3ccccc3c2)C(N)=O)NC1=O; target = SSTR4 (Homo sapiens, UniProt P31391); assay = ligand displacement, radioligand; setting = pH 8.2, cell membranes; IC50 = 0.0053 µM
Compound = COc1ccc(-c2csc(N/N=C(\C)c3ccc4c(c3)sc3nc(=O)c(C#N)cn34)n2)cc1; target = DNA gyrase (gyrA/gyrB, Escherichia coli, UniProt P0AES4+P0AES6); assay = enzyme activity, inhibitor; IC50 = 1.09 µM
Compound = Nc1ncnc2c1c(-c1ccc(Oc3ccccc3)cc1)nn2C1CCCC1; target = Tyrosine-protein kinase HCK, SH2 (HCK, Homo sapiens, UniProt P08631, Q523E/Q524E/Q525I); assay = enzyme activity, inhibitor; IC50 = 0.027 µM
Compound = O=[N+]([O-])c1ccc(Cn2cc(Cn3cc(CO)nn3)nn2)cc1; target = Pleckstrin homology domain-containing family A member 1, PH domain (Homo sapiens, UniProt Q9HB21); assay = PI(3,4)P2 binding, competitive SPR; setting = PH domain 500 nM; IC50 = 1.11 ± 0.078 µM
Compound = O=S(=O)(NCc1nc(-c2ccccc2)no1)c1ccccc1; target = Trypanothione synthetase (Trypanosoma brucei, UniProt Q586P2); assay = enzyme activity, inhibitor; IC50 = > 50 µM
Compound = O=C(Cn1cc([N+](=O)[O-])cc(Br)c1=O)c1cc2cc(Cl)ccc2[nH]1; target = RAD52 (Homo sapiens, UniProt P43351); assay = DNA binding, inhibitor, FRET; setting = 25 °C, with: Cy3-dT30-Cy5 1 nM; IC50 = 2.84 ± 0.32 µM
Compound = Cc1ccc2nc(-c3ccc4nc(-c5ccc6nc(-c7ccc8nc(-c9ccc(N)cc9)sc8c7)sc6c5)sc4c3)sc2c1S(=O)(=O)O; target = Genome polyprotein NS3 helicase domain; assay = helicase activity, inhibitor, MBHA; IC50 = 0.9 ± 0.4 µM
Compound = Oc1cccc(/C=N/n2c(Cn3nnc4ccccc43)n[nH]c2=S)c1; target = XDH (Bos taurus, UniProt P80457); assay = enzyme activity, inhibitor; IC50 = 254 µM
Compound = COC(=O)N1CCC(CN2CCC(CNC(=O)c3cccc4[nH]c(C(C)C)nc34)CC2)CC1; target = ABCB11 (Homo sapiens, UniProt O95342); assay = transporter uptake, inhibitor; IC50 = > 10 µM
Compound = CN=c1nc(-c2ccccc2)n(-c2ccccc2)s1; target = Trypanothione synthetase (Trypanosoma brucei brucei, UniProt Q586P2); assay = enzyme activity, BIOMOL Green phosphate release; setting = 1 h preincubation; IC50 = 3.7 µM and 4 µM
Compound = CC(=N)N(C)c1ccc(C(=O)Nc2ccc(F)cc2C(=O)Nc2ccc(Cl)cn2)cc1; target = F10; assay = enzyme activity, inhibitor, absorbance; IC50 = 0.0005 µM
Compound = CC(C)C[C@H](NC(=O)[C@H](CO)NC(=O)[C@@H](NC(=O)[C@@H]1CCCN1C(=O)[C@H](CCCNC(=N)N)NC(=O)[C@H](CCC(=O)O)NC(=O)[C@H](CCCCN)NC(=O)[C@H](CCCNC(=N)N)NC(=O)[C@H](CCCNC(=N)N)NC(=O)CNC(=O)[C@H](C)NC(=O)[C@@H](N)Cc1ccc(O)cc1)[C@@H](C)O)C(=O)N[C@@H](CC(N)=O)C(=O)N[C@H](C(=O)N[C@@H](Cc1ccccc1)C(=O)N1CCC[C@H]1C(=O)O)C(C)C; target = Mitogen-activated protein kinase 14 (Rattus norvegicus, UniProt P70618); assay = enzyme activity, inhibitor, fluorescence; IC50 = > 100 µM
Compound = NC(=O)[C@@H]1CCNC(=O)[C@H](CCCNC(=O)c2cnccn2)NC(=O)[C@H](Cc2ccco2)NC(=O)[C@H](CC2CC2)NC(=O)/C=C\C(=O)N1; target = HCK; assay = enzyme activity, inhibitor, absorbance; IC50 = > 100 µM
Compound = Cc1ccc2nc(-c3ccc(N=NNc4ccc(-c5nc6ccc(C)c(S(=O)(=O)O)c6s5)cc4)cc3)sc2c1S(=O)(=O)O; target = Genome polyprotein NS3 helicase domain; assay = protein-DNA complex formation, inhibitor; setting = with: Cy5-dT15 tracer; IC50 = 7 ± 3 µM
Compound = O=S(=O)(Nc1cscn1)c1c(F)cc(NCc2c(F)ccc(F)c2CN2CCC2)cc1F; target = SCN8A (Homo sapiens, UniProt Q9UQD0, R1626A); assay = ion current, inhibitor, patch clamp; setting = R1626A mutant; IC50 = 33.6 µM
Compound = CCCc1nc2cc(C(=O)N3CCC4(CC3)CC(=O)c3cc5c(cc3O4)OC(C)(C)CC5)cc(C)c2[nH]1; target = ACACB (Homo sapiens, UniProt O00763); assay = enzyme activity, inhibitor, ADP detection; IC50 = 0.141 µM
Compound = c1ccc2c(Nc3cc(C4CCC4)[nH]n3)nc(Nc3ccc4cn[nH]c4c3)nc2c1; target = ULK1 (Homo sapiens, UniProt O75385); assay = enzyme activity, inhibitor, radiometric; IC50 = > 0.3 µM
Compound = CC[C@H](C)[C@H](NC(=O)[C@H](CC(N)=O)NC(=O)[C@@H](NC(=O)[C@H](Cc1ccccc1)NC(=O)[C@H](Cc1ccc(O)cc1)NC(=O)[C@@H](N)CCSC)[C@@H](C)CC)C(=O)N[C@@H](CC(C)C)C(=O)N[C@H](C(=O)N[C@@H](CC(C)C)C(=O)O)[C@@H](C)O; target = N-formyl peptide receptor 2, deglycosylated (FPR2, Homo sapiens, UniProt P25090); assay = binding; test system = HEK293 glycosidase F treated; setting = with: [3H]LXA4; IC50 = ~0.01 µM
Compound = O=C1Nc2ccc(-c3ccc4cc(O)ccc4c3)cc2/C1=C/c1ccc(N2CCNCC2)cc1; target = FGFR3 (Homo sapiens, UniProt P22607); assay = enzyme activity, inhibitor; IC50 = 0.12 µM
Compound = CN1CCc2nc(C(=O)NC3CC(C(=O)O)CCC3NC(=O)C(=O)Nc3ccc(Cl)cn3)sc2C1 (stereo not drawn); target = F10; assay = enzyme activity, inhibitor; IC50 = 0.0018 µM
Compound = NNc1nc2cc3ccccc3cc2c(=O)n1CCc1ccccc1; target = Genome polyprotein, protease (Hepatitis C virus genotype 1b, UniProt O92972); assay = enzyme activity, inhibitor, FRET; IC50 = 7.21 µM
Compound = CCCCCCCCCCCCCCCCCC(=O)OCC(O)COC1O[C@H](CS(=O)(=O)O)[C@@H](O)[C@H](O)[C@H]1O (stereo partly drawn); target = DNA polymerase (POLA1, Bos taurus, UniProt A0AAA9TD94); assay = enzyme activity, inhibitor, radiometric; IC50 = ~2 µM
Compound = Cc1ccc(C=C2C(=O)c3ccccc3C2NC2CCCCC2)cc1 (racemic); target = DUSP1 (Homo sapiens, UniProt P28562); assay = ERK phosphorylation restoration, inhibitor, chemical complementation; test system = HeLa transfected with c-Myc-DUSP1; setting = 15 min, with: TPA; IC50 = 25.5 ± 6.1 µM
Compound = CN1C(=O)[C@H](CC2CCCCC2)NC(=O)/C=C/C(=O)N[C@H](C(=O)O)CCCNC(=O)[C@H](Cc2ccc([N+](=O)[O-])cc2)NC(=O)[C@@H]1Cc1ccc(F)cc1; target = SRC SH3-SH2-kinase domain; assay = enzyme activity, inhibitor, Z'-LYTE FRET; setting = Src residues 83-533, with: 50 µM ATP; IC50 = 5 ± 0.3 µM
Compound = C=CC(=O)N1CCc2ccc(-n3c(=O)ccc4cnc5ccc(-c6cnn(C)c6)cc5c43)cc21; target = HCK; assay = enzyme activity, inhibitor; IC50 = > 10 µM
Compound = COc1cccc(Nc2c(C(N)=O)cnc3c(C)cc(-c4ccc5cnn(C)c5c4)cc23)c1; target = cAMP phosphodiesterase B2 (Trypanosoma brucei, UniProt Q38F42); assay = inhibitor; IC50 = 8 ± 3.9 µM
